Measurements from different studies.
Parts stem from different laboratories: compare values within a part only.
Sequence of UniProt Q13976 (whole entry, looked up): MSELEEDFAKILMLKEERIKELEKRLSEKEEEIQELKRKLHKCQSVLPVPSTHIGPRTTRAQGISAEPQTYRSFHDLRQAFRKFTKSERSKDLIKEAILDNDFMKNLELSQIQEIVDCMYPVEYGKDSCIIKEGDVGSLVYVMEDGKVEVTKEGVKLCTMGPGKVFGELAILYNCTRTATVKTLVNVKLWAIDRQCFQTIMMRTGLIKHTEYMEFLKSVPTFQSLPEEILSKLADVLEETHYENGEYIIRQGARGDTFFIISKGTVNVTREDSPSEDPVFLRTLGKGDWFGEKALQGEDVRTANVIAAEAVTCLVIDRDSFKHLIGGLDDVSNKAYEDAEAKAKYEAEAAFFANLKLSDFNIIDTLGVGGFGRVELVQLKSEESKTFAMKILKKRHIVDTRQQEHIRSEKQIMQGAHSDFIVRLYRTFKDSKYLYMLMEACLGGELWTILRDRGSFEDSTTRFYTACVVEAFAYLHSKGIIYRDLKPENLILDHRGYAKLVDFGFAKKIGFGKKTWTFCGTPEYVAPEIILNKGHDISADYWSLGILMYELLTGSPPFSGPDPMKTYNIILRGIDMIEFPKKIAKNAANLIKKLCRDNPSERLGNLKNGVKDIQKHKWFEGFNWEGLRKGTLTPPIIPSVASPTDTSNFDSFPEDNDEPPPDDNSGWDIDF
Sequence of UniProt P0C264 (whole entry, looked up): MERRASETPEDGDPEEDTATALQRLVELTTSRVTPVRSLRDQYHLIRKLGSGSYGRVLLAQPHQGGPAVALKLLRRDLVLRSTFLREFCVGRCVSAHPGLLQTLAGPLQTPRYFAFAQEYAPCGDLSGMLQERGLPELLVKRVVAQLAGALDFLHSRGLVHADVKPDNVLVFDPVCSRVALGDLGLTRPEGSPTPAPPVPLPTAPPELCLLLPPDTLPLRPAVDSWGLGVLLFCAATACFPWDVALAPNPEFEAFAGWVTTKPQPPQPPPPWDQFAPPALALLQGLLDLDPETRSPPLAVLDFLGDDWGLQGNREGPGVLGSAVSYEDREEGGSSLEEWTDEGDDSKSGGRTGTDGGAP
Sequence of UniProt P51812 (whole entry, looked up): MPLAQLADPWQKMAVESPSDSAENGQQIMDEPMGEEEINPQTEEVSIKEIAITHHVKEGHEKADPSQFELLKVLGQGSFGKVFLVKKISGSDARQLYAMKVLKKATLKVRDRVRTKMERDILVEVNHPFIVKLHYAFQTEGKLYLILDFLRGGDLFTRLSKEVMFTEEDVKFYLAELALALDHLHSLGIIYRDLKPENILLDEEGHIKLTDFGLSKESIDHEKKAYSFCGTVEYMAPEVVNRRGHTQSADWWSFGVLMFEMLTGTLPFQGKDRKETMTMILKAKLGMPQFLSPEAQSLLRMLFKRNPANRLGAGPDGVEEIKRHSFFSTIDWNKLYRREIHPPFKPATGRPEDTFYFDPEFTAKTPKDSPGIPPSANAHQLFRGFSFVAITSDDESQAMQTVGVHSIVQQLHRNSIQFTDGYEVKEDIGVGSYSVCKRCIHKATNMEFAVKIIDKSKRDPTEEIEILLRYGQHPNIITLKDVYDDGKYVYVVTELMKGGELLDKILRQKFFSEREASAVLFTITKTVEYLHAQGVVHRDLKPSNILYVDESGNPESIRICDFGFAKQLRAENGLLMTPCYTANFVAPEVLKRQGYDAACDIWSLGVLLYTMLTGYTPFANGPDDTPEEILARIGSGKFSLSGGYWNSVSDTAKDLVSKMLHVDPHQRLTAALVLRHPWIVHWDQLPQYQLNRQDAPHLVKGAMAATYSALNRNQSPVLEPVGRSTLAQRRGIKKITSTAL
Sequence of UniProt O14733 (whole entry, looked up): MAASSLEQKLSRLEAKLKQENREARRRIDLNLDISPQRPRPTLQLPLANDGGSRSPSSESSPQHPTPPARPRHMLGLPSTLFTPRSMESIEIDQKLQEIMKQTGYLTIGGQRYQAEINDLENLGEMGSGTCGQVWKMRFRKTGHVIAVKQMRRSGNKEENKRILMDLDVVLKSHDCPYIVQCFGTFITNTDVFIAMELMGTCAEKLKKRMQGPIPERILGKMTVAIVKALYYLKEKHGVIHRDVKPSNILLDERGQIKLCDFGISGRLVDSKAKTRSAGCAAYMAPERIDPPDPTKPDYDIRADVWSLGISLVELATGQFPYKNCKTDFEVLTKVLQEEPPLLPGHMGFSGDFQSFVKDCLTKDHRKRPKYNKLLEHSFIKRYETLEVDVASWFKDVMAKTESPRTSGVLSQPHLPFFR
Sequence of UniProt Q16620 (whole entry, looked up): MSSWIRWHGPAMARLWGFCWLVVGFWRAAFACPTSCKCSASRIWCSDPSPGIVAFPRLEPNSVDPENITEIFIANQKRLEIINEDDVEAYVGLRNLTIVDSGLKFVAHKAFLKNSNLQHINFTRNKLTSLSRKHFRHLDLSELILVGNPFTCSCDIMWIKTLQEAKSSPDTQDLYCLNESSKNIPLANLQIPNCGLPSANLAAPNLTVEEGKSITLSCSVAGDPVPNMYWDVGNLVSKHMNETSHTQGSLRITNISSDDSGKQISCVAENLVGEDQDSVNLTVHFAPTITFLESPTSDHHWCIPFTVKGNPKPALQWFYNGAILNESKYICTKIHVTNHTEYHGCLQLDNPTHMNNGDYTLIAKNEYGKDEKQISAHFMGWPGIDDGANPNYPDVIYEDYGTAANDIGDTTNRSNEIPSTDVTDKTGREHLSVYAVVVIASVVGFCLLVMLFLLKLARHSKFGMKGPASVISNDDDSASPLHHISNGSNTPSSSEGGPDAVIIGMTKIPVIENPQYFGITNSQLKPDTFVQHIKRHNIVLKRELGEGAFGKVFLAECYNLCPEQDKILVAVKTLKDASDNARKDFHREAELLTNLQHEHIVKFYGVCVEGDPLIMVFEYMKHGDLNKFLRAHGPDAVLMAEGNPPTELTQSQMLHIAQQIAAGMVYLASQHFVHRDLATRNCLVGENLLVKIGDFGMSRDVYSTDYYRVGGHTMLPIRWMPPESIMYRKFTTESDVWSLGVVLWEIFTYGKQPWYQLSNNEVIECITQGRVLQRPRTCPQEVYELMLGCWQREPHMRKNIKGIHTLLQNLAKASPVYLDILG
Sequence of UniProt O75676 (whole entry, looked up): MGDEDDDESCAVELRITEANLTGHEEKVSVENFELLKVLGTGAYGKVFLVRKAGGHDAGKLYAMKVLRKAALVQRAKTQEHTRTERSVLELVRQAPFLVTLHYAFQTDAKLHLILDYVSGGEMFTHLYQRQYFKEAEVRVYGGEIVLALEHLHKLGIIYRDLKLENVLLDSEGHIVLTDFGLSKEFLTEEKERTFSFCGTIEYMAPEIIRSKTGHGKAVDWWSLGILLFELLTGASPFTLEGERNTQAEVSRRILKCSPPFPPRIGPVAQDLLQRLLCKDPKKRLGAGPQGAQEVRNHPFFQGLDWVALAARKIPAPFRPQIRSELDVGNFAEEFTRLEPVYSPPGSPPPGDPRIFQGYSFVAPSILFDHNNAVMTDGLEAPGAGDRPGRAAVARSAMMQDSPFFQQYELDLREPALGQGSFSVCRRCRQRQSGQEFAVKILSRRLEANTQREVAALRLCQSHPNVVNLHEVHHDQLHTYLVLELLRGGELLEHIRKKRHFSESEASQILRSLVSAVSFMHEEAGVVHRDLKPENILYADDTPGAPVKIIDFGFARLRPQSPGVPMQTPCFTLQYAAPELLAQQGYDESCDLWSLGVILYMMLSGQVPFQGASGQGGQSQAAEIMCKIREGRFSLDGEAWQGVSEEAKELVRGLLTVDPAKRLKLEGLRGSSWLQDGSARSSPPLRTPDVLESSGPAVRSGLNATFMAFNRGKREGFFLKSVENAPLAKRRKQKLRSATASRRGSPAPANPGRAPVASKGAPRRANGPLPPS
Sequence of UniProt Q08345 (whole entry, looked up): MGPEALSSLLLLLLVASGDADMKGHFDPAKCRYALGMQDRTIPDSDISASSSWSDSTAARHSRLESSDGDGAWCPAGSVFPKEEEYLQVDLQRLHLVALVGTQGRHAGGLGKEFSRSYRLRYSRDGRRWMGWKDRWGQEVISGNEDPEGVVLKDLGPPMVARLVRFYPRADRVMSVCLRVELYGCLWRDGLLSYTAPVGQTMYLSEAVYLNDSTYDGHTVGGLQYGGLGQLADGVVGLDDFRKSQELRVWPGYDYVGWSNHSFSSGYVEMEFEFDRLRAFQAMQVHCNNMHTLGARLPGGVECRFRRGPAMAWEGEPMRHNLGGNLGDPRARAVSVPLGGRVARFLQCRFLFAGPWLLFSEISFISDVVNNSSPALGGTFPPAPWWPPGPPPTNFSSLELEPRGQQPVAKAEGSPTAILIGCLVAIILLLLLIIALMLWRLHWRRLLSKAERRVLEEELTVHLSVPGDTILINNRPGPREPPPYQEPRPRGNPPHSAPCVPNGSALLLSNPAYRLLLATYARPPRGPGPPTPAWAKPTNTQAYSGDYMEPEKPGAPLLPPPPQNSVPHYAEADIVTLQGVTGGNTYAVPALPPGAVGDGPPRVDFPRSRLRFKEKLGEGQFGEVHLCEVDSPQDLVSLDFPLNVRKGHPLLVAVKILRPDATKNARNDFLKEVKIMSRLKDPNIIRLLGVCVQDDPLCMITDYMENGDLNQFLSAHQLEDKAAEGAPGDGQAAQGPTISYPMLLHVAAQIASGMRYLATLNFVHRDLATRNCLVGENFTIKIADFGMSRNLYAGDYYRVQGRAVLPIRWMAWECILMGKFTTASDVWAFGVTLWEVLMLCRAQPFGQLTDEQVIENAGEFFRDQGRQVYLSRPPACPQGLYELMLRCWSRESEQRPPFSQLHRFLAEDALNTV
Sequence of UniProt Q38832 (whole entry, looked up): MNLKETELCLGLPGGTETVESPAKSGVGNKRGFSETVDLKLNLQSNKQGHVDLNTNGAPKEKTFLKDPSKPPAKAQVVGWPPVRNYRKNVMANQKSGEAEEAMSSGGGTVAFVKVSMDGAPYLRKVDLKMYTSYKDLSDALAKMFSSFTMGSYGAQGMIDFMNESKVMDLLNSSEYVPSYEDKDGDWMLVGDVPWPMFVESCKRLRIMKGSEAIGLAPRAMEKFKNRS

Block 1
SMILES: CN(C)C(=O)Cn1cc(-c2nc(C3(c4ccc(-c5cnc(N)nc5)cc4)CC3)no2)cn1
Effect on: cell-free assay
Method: competition with immobilised ligand
Concentration: 1 µM
Quantity: remaining binding
target = Uncharacterized serine/threonine-protein kinase SBK3 (SBK3, Homo sapiens, UniProt P0C264); value = 99%
target = Fibroblast growth factor receptor 2 (FGFR2, Homo sapiens, UniProt P21802); value = 100%
target = Ribosomal protein S6 kinase alpha-4, C-terminal kinase domain (RPS6KA4, Homo sapiens, UniProt O75676); value = 86%
target = Dual specificity protein kinase CLK1 (CLK1, Homo sapiens, UniProt P49759); value = 100%
target = Cyclin-dependent kinase-like 1 (CDKL1, Homo sapiens, UniProt Q00532); value = 100%
target = Tyrosine-protein kinase ABL1, non-phosphorylated (ABL1, Homo sapiens, UniProt P00519, H396P); value = 100%
target = Epithelial discoidin domain-containing receptor 1 (DDR1, Homo sapiens, UniProt Q08345); value = 86%
target = Dual specificity mitogen-activated protein kinase kinase 7 (MAP2K7, Homo sapiens, UniProt O14733); value = 87%
target = TRAF2 and NCK-interacting protein kinase (TNIK, Homo sapiens, UniProt Q9UKE5); value = 100%
target = Ribosomal protein S6 kinase alpha-3, N-terminal kinase domain (RPS6KA3, Homo sapiens, UniProt P51812); value = 92%
target = cGMP-dependent protein kinase 1 (PRKG1, Homo sapiens, UniProt Q13976); value = 89%
target = BDNF/NT-3 growth factors receptor (NTRK2, Homo sapiens, UniProt Q16620); value = 100%
target = Serine/threonine-protein kinase Nek10 (NEK10, Homo sapiens, UniProt Q6ZWH5); value = 99%
target = Mitogen-activated protein kinase kinase kinase 11 (MAP3K11, Homo sapiens, UniProt Q16584); value = 87%
target = Mast/stem cell growth factor receptor Kit (KIT, Homo sapiens, UniProt P10721, L576P); value = 84%

Block 2
Molecule: B1 (IAA13)
Method: two-hybrid
Baseline: out of 4 tests
Reading: higher = firmer interaction
Quantity: positive tests
B1: IAA13 (Arabidopsis thaliana, UniProt Q38831); chain MITELEMGKGESELELGLGLSLGGGTAAKIGKSGGGGAWGERGRLLTAKDFPSVGSKRAADSASHAGSSPPRSSSQVVGWPPIGSHRMNSLVNNQATKSAREEEEAGKKKVKDDEPKDVTKKVNGKVQVGFIKVNMDGVAIGRKVDLNAHSSYENLAQTLEDMFFRTNPGTVGLTSQFTKPLRLLDGSSEFVLTYEDKEGDWMLVGDVPWRMFINSVKRLRVMKTSEANGLAARNQEPNERQRKQPV
partner = ARF4 660-788 (Arabidopsis thaliana, UniProt Q9ZTX9); value = 0
partner = IAA15 (Arabidopsis thaliana, UniProt Q9C966); value = 4
partner = ARF13 (Arabidopsis thaliana, UniProt Q9FX25); value = 0
partner = IAA14 (Arabidopsis thaliana, UniProt Q38832); value = 4

Block 3
Target: RNA binding protein fox-1 homolog 2, RRM domain, GST-SBP tag (RBFOX2, Homo sapiens, UniProt O43251-10, residues 100-194)
Method: RNA Bind-n-Seq
Molecule type: RNA
Sample: in vitro
Concentration: 365 nM
Setting: natural RNA segment, single round, ends assumed
Baseline: no-protein control
Reading: higher = stronger binding
Quantity: RBNS enrichment (R)
Construct (chain): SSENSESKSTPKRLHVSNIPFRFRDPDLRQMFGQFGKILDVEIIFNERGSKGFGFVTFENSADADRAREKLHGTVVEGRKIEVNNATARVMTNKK
Oligonucleotide = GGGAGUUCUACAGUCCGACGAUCUAAUAUGAACCAACAAUCUGGAGCACACCGAAGGGCAAUCUAAAUUGUGGCUUGAAGGACUGCACUAAAACCCACUAAAAAGAUGCGAAAACCUGAUGAGGGCAAACCAGUGGAAUUCUCGGGUGCCAA; value = 0.405
Oligonucleotide = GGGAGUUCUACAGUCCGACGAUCGAAUAUGAAGGAUAGCUGAGCUGUAGCCUCCAGAGUGGGGCAUGCCUAGGCAUAUGGCUGGCUUGGAGACUACUGAUGCUUUUCCCUGAGUUUGUUAUUGGCACUGAAGUUGGAAUUCUCGGGUGCCAA; value = 0.736
Oligonucleotide = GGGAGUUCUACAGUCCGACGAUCAUUAUAGGAUUUGUAUUUUCUCCUUUUUUUUCCCCCUUCCAUUCCUUCUCCCCUCUUGCAUUCAAGAUUAUGAAACUUUGCUAUGGGCCCUGCACUUCCUUUGCUUCCUCUGGAAUUCUCGGGUGCCAA; value = 1.44
Oligonucleotide = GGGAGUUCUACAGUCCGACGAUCAACCAUCUCUCAUGGUUGUUAGCAAGAUGCCUAACACACUCAAGCAAACUAAGCACUGUCACUUUCCUUUCUGAACCAUCUCAGCCAAAAAGGCCACCAUGAGGACAUCUUGGAAUUCUCGGGUGCCAA; value = 0.383
Oligonucleotide = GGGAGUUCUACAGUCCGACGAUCAAUCAUUGAAUACUUCAAUCAGGAUAUUAUCUGCUUUACUUUACAAAUAAAACCAAAUCUUUUGUCAACAGGAUGAAACCCAUCUUAAAGGAAAGAAAAGGAAUUGGUGUUGGAAUUCUCGGGUGCCAA; value = 0.432
Oligonucleotide = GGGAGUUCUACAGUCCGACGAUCUGGAAUCCUCACUGUAUCCACUAGGAGAUUAGAAAUUAAGGUUUCUUCACUACUUCUAUGGUAGGGUUGUCUGAAAUUCCCUUUCAGGCUGUGGGUACUGGUCUUGGGUUUGGAAUUCUCGGGUGCCAA; value = 0.306
Oligonucleotide = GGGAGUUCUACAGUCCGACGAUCGAAAGCACAAUAAAAAUGAGUAACAGAAAAAGCACAUAUACUAGCCUAACAGAUUGGCUUGUUUUAAAGCAAAGACUGAAUUGAAGGUUACAUGUUUUAGGAUAAACUAAUGGAAUUCUCGGGUGCCAA; value = 0.624
Oligonucleotide = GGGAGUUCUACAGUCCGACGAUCUGGGGCCUUCCUGGCUUUGGGAGUAAGAAAUGGGCCUCAGCCCCGCGGAUCAACCAGGCAGAGUUCUGUGGCGCCGCGUGGACAGCCGGAGCAGUUGGCCUGUGCUUGGAUGGAAUUCUCGGGUGCCAA; value = 0.413

Block 4
Host: mouse
Sample: microsomes or S9
Concentration: 2 µM
Time: 0.5 h
Quantity: remaining compound
SMILES = CC1(C)Cc2c(c(N3CCOCC3)nc3sc4c(=O)n(CCc5ccccc5)cnc4c23)CO1; value = 14.4%
SMILES = CC(=O)Nc1ccccc1C(c1ccc(C)o1)c1ccc(C)o1; value = 2.16%
SMILES = COC(=O)c1ccc(-c2ccccc2NS(C)(=O)=O)s1; value = 57.3%

A few entries again (block 1):
target = Dual specificity protein kinase CLK1 (CLK1, Homo sapiens, UniProt P49759); value = 100%
target = Cyclin-dependent kinase-like 1 (CDKL1, Homo sapiens, UniProt Q00532); value = 100%
